Measured values of several laboratories.
Compare with care: the assays were run in different laboratories. Numbers after ± are the reported error.

SMILES | test | test system | conditions | Cmax
CC(C)NC[C@@H](C(=O)N1CCN(c2ncnc3c2[C@H](C)C[C@H]3O)CC1)c1ccc(Cl)cc1 | – | human, Moderate hepatic function, plasma | oral, 100 mg single dose, NCI classification, geometric mean | 97.1 ng/mL
CC(C)[C@@H](CS(=O)(=O)C(C)C)N1C(=O)[C@@](C)(CC(=O)O)C[C@H](c2cccc(Cl)c2)[C@H]1c1ccc(Cl)cc1 | – | human, plasma | oral, 60 mg, new tablet, fed, geometric LS mean | 442 ng/mL
O=CC[C@@H](O)[C@H](O)[C@H](O)CO | HPLC-fluorescence | human patients, plasma | oral, 45 mg/kg/day, cycle 2 | 426000 ± 145000 nM
C=CC(=O)N1C[C@H](Nc2ncnc3[nH]ccc23)CC[C@@H]1C | adjusted geometric mean | human, plasma | oral, 50 mg single dose, with: rifampicin 600 mg once daily for 8 days | 204 ng/mL
CC(C)(C(=O)NCC(F)(F)C(F)(F)F)C(=O)N[C@@H]1C(=O)Nc2ccccc2-c2ccccc21 | – | human, plasma | oral, 5 mg, day 15, with: bevacizumab | 117 ng/mL
NS(=O)(=O)OC[C@@H]1C[C@@H](n2ccc3c(N[C@H]4CCc5ccccc54)ncnc32)C[C@@H]1O | – | human | intravenous, 15 mg/m^2 single dose, day 8, with: itraconazole | 193 ng/mL
C[C@@H](Oc1cc(-c2cnn(C3CCNCC3)c2)cnc1N)c1c(Cl)ccc(F)c1Cl | – | healthy human, plasma | oral, 250 mg single fasted, arithmetic mean | 124 ± 39.2 ng/mL
CCn1c(=O)c2c(nc(/C=C/c3ccc(OC)c(OC)c3)n2C)n(CC)c1=O | – | healthy human, plasma | oral, 40 mg single dose, arithmetic mean, with: rifampin 600 mg/day steady state | 97.8 ng/mL
CC(=O)O[C@H]1C(=O)[C@@]2(C)[C@H]([C@H](OC(=O)c3ccccc3)[C@]3(O)C[C@H](OC(=O)[C@H](O)[C@@H](NC(=O)c4ccccc4)c4ccccc4)C(C)=C1C3(C)C)[C@]1(OC(C)=O)CO[C@@H]1C[C@@H]2O | – | human patients on no protease inhibitor, plasma | iv, 100 mg/m^2 over 3 h, cycle 1 | 1010 ± 340 nM
CC(C)C[C@H](NC(=O)[C@H](CCc1ccccc1)NC(=O)CN1CCOCC1)C(=O)N[C@@H](Cc1ccccc1)C(=O)N[C@@H](CC(C)C)C(=O)[C@@]1(C)CO1 | – | human patients, plasma | intravenous infusion 10 min, 27 mg/m^2, day 16 of cycle 1, KRd regimen | 2030 ± 282 ng/mL
CO[C@H]1C[C@@H]2CC[C@@H](C)[C@@](O)(O2)C(=O)C(=O)N2CCCC[C@H]2C(=O)O[C@H]([C@H](C)C[C@@H]2CC[C@@H](O)[C@H](OC)C2)CC(=O)[C@H](C)/C=C(\C)[C@@H](O)[C@@H](OC)C(=O)[C@H](C)C[C@H](C)/C=C/C=C/C=C/1C | – | human, whole blood | oral, 30 mg, with: grapefruit juice | 82.1 ng/mL
COc1ccc(-n2nc(C(N)=O)c3c2C(=O)N(c2ccc(N4CCCCC4=O)cc2)CC3)cc1 | – | healthy human subjects, plasma | oral, 2.5 mg twice daily, day 4, steady state, geometric mean, with: rivaroxaban 10 mg once daily | 81 ng/mL
CON(C)C(=O)N1N=C(c2cc(F)ccc2F)S[C@@]1(CCCN)c1ccccc1 | – | human | intravenous, 1.5 mg/m^2, cycle 1 day 3, geometric mean | 79.8 ng/mL
C=C(C)[C@@H]1CC[C@]2(NCCN3CCS(=O)(=O)CC3)CC[C@]3(C)[C@H](CC[C@@H]4[C@@]5(C)CC=C(C6=CC[C@@](CF)(C(=O)O)CC6)C(C)(C)[C@@H]5CC[C@]43C)[C@@H]12 | – | human, HIV-1 treatment-naive, plasma | oral, 200 mg single with food, day 1 | 940 ng/mL
COc1cc(OC)c(/C=C/S(=O)(=O)Cc2ccc(OC)c(NCC(=O)O)c2)c(OC)c1 | – | human, patients with urinary symptoms, urine | oral, 560 mg | 2490 ng/mL
COc1cc(Nc2ncc3c(n2)-c2ccc(Cl)cc2C(c2c(F)cccc2OC)=NC3)ccc1C(=O)O | – | human, plasma | oral, 50 mg single, fasted | 1580 nM
COc1cc(Nc2ncc3c(n2)-c2ccc(Cl)cc2C(c2c(F)cccc2OC)=NC3)ccc1C(=O)O | – | human patients, plasma | oral, 40 mg single dose, single agent run-in | 706 ± 268 ng/mL
